Results of several laboratories.
Each line is one published result; not all experiments were run side by side. Numbers after ± are the reported error.

Compound | assay | system | setting | scale | quantity | result
CCCC[C@H](NC(=O)CNC(=O)CNC(=O)c1ccc(NN)nc1)C(=O)N[C@H]1CC(=O)NCCCC[C@@H](C(N)=O)NC(=O)[C@H](Cc2c[nH]c3ccccc23)NC(=O)[C@H](CCCNC(=N)N)NC(=O)[C@@H](Cc2ccccc2)NC(=O)[C@H](Cc2c[nH]cn2)NC1=O [technetium-99m labelled] | – | C57 mouse, B16/F1 melanoma-bearing | intravenous, 2 h | relative to: tumour over muscle | tissue uptake ratio | 354
N=C(N)NCCC[C@@H]1NC(=O)[C@H](CCCCNC(=O)CNC(=O)CNC(=O)CNC(=O)CC[C@H](NC(=O)CCOCCOCCOCCOCCNC(=O)CC[C@H](NC(=O)CN2CCN(CC(=O)O)CCN(CC(=O)O)CCN(CC(=O)O)CC2)C(=O)NCCOCCOCCOCCOCCC(=O)N[C@@H](CCC(=O)NCC(=O)NCC(=O)NCC(=O)NCCCC[C@@H]2NC(=O)[C@@H](Cc3ccccc3)NC(=O)[C@H](CC(=O)O)NC(=O)CNC(=O)[C@H](CCCNC(=N)N)NC2=O)C(=O)NCC(=O)NCC(=O)NCC(=O)NCCCC[C@@H]2NC(=O)[C@@H](Cc3ccccc3)NC(=O)[C@H](CC(=O)O)NC(=O)CNC(=O)[C@H](CCCNC(=N)N)NC2=O)C(=O)NCC(=O)NCC(=O)NCC(=O)NCCCC[C@@H]2NC(=O)[C@@H](Cc3ccccc3)NC(=O)[C@H](CC(=O)O)NC(=O)CNC(=O)[C@H](CCCNC(=N)N)NC2=O)NC(=O)[C@@H](Cc2ccccc2)NC(=O)[C@H](CC(=O)O)NC(=O)CNC1=O [indium-111 labelled] | – | female athymic nude mouse | intravenous, 3 µCi, 24 h, U-87 MG glioma xenograft | relative to: tumour over muscle | tumour to muscle ratio | 24 ± 14.2
N=C(N)NCCC[C@@H]1NC(=O)[C@H](CCCCNC(=O)CCc2cn(CCC[C@@H]3O[C@H](COC(=O)NCCNC(=O)CN4CCN(CC(=O)O)CCN(CC(=O)O)CCN(CC(=O)O)CC4)[C@@H](O)[C@H](O)[C@H]3O)nn2)NC(=O)[C@@H](Cc2ccccc2)NC(=O)[C@H](CC(=O)O)NC(=O)CNC1=O [gallium-68 labelled] | PET | female NMRI nu/nu mice, U-87 MG xenograft, contralateral non-target area | intravenous, 10 MBq, hour 2 of recording | – | SUVmean | 0.1 ± 0.01 SUV
N=C(N)NCCC[C@@H]1NC(=O)[C@H](CCCCNC(=O)CCOCCOCCOCCOCCNC(=O)CN2CCN(CC(=O)O)CCN(CC(=O)O)CCN(CC(=O)O)CC2)NC(=O)[C@@H](Cc2ccccc2)NC(=O)[C@H](CC(=O)O)NC(=O)CNC1=O [indium-111 labelled] | – | female athymic nude mice, brain | intravenous, 3 µCi, 24 h, U-87 MG glioma xenograft | – | tissue uptake | 0.03 %ID/g
CC(C)C[C@H](NC(=O)C[C@H](O)[C@H](CC(C)C)NC(=O)[C@H](Cc1c[nH]cn1)NC(=O)CNC(=O)[C@@H](NC(=O)[C@H](C)NC(=O)[C@H](Cc1c[nH]c2ccccc12)NC(=O)[C@H](CCC(N)=O)NC(=O)[C@@H](Cc1ccccc1)NC(=O)c1ccc(NC(=O)CNC(=O)CCC(C(=O)O)N2CCN(CC(=O)O)CCN(CC(=O)O)CC2)cc1)C(C)C)C(N)=O (stereo partly drawn) [fluorine-18 labelled] | PET imaging | mouse, PC-3 xenograft | intravenous, 2 h, blocking, added: AMBA 10 mg/kg | – | tumour uptake | 0.93 ± 0.14 %ID/g
CC(C)C[C@H](NC(=O)[C@@H]1CCCN1C(=O)[C@H](CCCCN)NC(=O)[C@@H](N)CO)C(=O)N1CCC[C@H]1C(=O)N[C@@H](CCC(=O)O)C(=O)N[C@H](C(=O)N[C@H](C(=O)N[C@@H](CC(=O)O)C(=O)N[C@@H](CCC(=O)O)C(=O)N[C@@H](Cc1ccc(O)cc1)C(=O)N[C@@H](Cc1cn(CCOCCOCCOCCNC(=O)CCc2ccc(O)c(CN(CCN(CC(=O)O)Cc3cc(CCC(=O)NCCCC[C@H](NC(=O)N[C@@H](CCC(=O)O)C(=O)O)C(=O)O)ccc3O)CC(=O)O)c2)nn1)C(=O)O)[C@@H](C)O)C(C)C [gallium-68 labelled] | – | NMRI nu/nu mice, LNCaP tumour, adrenals | 135.34 nmol/kg, low molar activity | – | standardized uptake value | 0.24 g/g
CSCC[C@H](NC(=O)[C@H](CC(C)C)NC(=O)[C@H](Cc1c[nH]cn1)NC(=O)CNC(=O)[C@@H](NC(=O)[C@H](C)NC(=O)[C@H](Cc1c[nH]c2ccccc12)NC(=O)[C@H](CCC(N)=O)NC(=O)CCCCCNC(=O)CN1CCN(CC(=O)O)CCN(CC(=O)O)CC1)C(C)C)C(N)=O [gallium-68 labelled] | microPET imaging | mouse PC-3 xenograft, PC-3 tumour | intravenous, 3.7 MBq, 15 min | – | maximum tumour uptake | 6.68 ± 0.69 %ID/g
N=C(N)NCCC[C@@H]1NC(=O)[C@H](CCCCNC(=O)CCOCCOCCOCCOCCNC(=O)CC[C@H](NC(=O)CCOCCOCCOCCOCCNC(=O)CC[C@H](NC(=O)CN2CCN(CC(=O)O)CCN(CC(=O)O)CCN(CC(=O)O)CC2)C(=O)NCCOCCOCCOCCOCCC(=O)N[C@@H](CCC(=O)NCCOCCOCCOCCOCCC(=O)NCCCC[C@@H]2NC(=O)[C@@H](Cc3ccccc3)NC(=O)[C@H](CC(=O)O)NC(=O)CNC(=O)[C@H](CCCNC(=N)N)NC2=O)C(=O)NCCOCCOCCOCCOCCC(=O)NCCCC[C@@H]2NC(=O)[C@@H](Cc3ccccc3)NC(=O)[C@H](CC(=O)O)NC(=O)CNC(=O)[C@H](CCCNC(=N)N)NC2=O)C(=O)NCCOCCOCCOCCOCCC(=O)NCCCC[C@@H]2NC(=O)[C@@H](Cc3ccccc3)NC(=O)[C@H](CC(=O)O)NC(=O)CNC(=O)[C@H](CCCNC(=N)N)NC2=O)NC(=O)[C@@H](Cc2ccccc2)NC(=O)[C@H](CC(=O)O)NC(=O)CNC1=O [indium-111 labelled] | – | athymic nude mice, female, U-87 MG glioma xenograft, tumour and blood | intravenous, 0.5 h | relative to: tumour over blood | tumour to tissue ratio | 11.3 ± 1.71
N=C(N)NCCC[C@@H]1NC(=O)[C@H](CCCCNC(=O)c2ccc(CNC34CNCCNCC(NCc5ccc(C(=O)NCCCC[C@@H]6NC(=O)[C@@H](Cc7ccc(O)cc7)NC(=O)[C@H](CC(=O)O)NC(=O)CNC(=O)[C@H](CCCNC(=N)N)NC6=O)cc5)(CNCCNC3)CNCCNC4)cc2)NC(=O)[C@@H](Cc2ccc(O)cc2)NC(=O)[C@H](CC(=O)O)NC(=O)CNC1=O [copper-64 labelled] | microPET | female athymic nude mouse, U-87 MG xenograft, U-87 MG tumour | intravenous, 1 h, added: c(RGDyK) 10 mg/kg blocking | – | tumour uptake | 0.69 ± 0.12 %ID/g
N=C(N)NCCC[C@@H]1NC(=O)[C@H](CCCCNC(=O)CC[C@H](NC(=O)CCOCCOCCOCCOCCNC(=O)CC[C@H](NC(=O)CN2CCN(CC(=O)O)CCN(CC(=O)O)CCN(CC(=O)O)CC2)C(=O)NCCOCCOCCOCCOCCC(=O)N[C@@H](CCC(=O)NCCCC[C@@H]2NC(=O)[C@@H](Cc3ccccc3)NC(=O)[C@H](CC(=O)O)NC(=O)CNC(=O)[C@H](CCCNC(=N)N)NC2=O)C(=O)NCCCC[C@@H]2NC(=O)[C@@H](Cc3ccccc3)NC(=O)[C@H](CC(=O)O)NC(=O)CNC(=O)[C@H](CCCNC(=N)N)NC2=O)C(=O)NCCCC[C@@H]2NC(=O)[C@@H](Cc3ccccc3)NC(=O)[C@H](CC(=O)O)NC(=O)CNC(=O)[C@H](CCCNC(=N)N)NC2=O)NC(=O)[C@@H](Cc2ccccc2)NC(=O)[C@H](CC(=O)O)NC(=O)CNC1=O [indium-111 labelled] | – | athymic nude mice, female, U-87 MG glioma xenograft, tumour and blood | intravenous, 72 h | relative to: tumour over blood | tumour to tissue ratio | 192 ± 172
CSCC[C@H](NC(=O)[C@H](CC(C)C)NC(=O)[C@H](Cc1c[nH]cn1)NC(=O)CNC(=O)[C@@H](NC(=O)[C@H](C)NC(=O)[C@H](Cc1c[nH]c2ccccc12)NC(=O)[C@H](CCC(N)=O)NC(=O)CCCCCNC(=O)CNC(=O)CNC(=O)CNC(=O)CSC(C)=O)C(C)C)C(N)=O [technetium-99m labelled] | – | Swiss mouse, liver | intravenous, 18.5 MBq, 30 min | – | tissue uptake | 2.79 ± 0.47 %ID/g
CCCC[C@H](NC(=O)CCCCCCCNC(=O)c1ccc(NN)nc1)C(=O)N[C@H]1CC(=O)NCCCC[C@@H](C(N)=O)NC(=O)[C@H](Cc2c[nH]c3ccccc23)NC(=O)[C@H](CCCNC(=N)N)NC(=O)[C@@H](Cc2ccccc2)NC(=O)[C@H](Cc2c[nH]cn2)NC1=O [technetium-99m labelled] | – | C57 mice, B16/F1 melanoma, intestines | concentration not given, 2 h, added: 6.07 nmol NDP-MSH | – | biodistribution | 1.85 ± 0.42 %ID

Some of these lines once more:
Compound | assay | system | setting | scale | quantity | result
CCCC[C@H](NC(=O)CNC(=O)CNC(=O)c1ccc(NN)nc1)C(=O)N[C@H]1CC(=O)NCCCC[C@@H](C(N)=O)NC(=O)[C@H](Cc2c[nH]c3ccccc23)NC(=O)[C@H](CCCNC(=N)N)NC(=O)[C@@H](Cc2ccccc2)NC(=O)[C@H](Cc2c[nH]cn2)NC1=O [technetium-99m labelled] | – | C57 mouse, B16/F1 melanoma-bearing | intravenous, 2 h | relative to: tumour over muscle | tissue uptake ratio | 354
N=C(N)NCCC[C@@H]1NC(=O)[C@H](CCCCNC(=O)CNC(=O)CNC(=O)CNC(=O)CC[C@H](NC(=O)CCOCCOCCOCCOCCNC(=O)CC[C@H](NC(=O)CN2CCN(CC(=O)O)CCN(CC(=O)O)CCN(CC(=O)O)CC2)C(=O)NCCOCCOCCOCCOCCC(=O)N[C@@H](CCC(=O)NCC(=O)NCC(=O)NCC(=O)NCCCC[C@@H]2NC(=O)[C@@H](Cc3ccccc3)NC(=O)[C@H](CC(=O)O)NC(=O)CNC(=O)[C@H](CCCNC(=N)N)NC2=O)C(=O)NCC(=O)NCC(=O)NCC(=O)NCCCC[C@@H]2NC(=O)[C@@H](Cc3ccccc3)NC(=O)[C@H](CC(=O)O)NC(=O)CNC(=O)[C@H](CCCNC(=N)N)NC2=O)C(=O)NCC(=O)NCC(=O)NCC(=O)NCCCC[C@@H]2NC(=O)[C@@H](Cc3ccccc3)NC(=O)[C@H](CC(=O)O)NC(=O)CNC(=O)[C@H](CCCNC(=N)N)NC2=O)NC(=O)[C@@H](Cc2ccccc2)NC(=O)[C@H](CC(=O)O)NC(=O)CNC1=O [indium-111 labelled] | – | female athymic nude mouse | intravenous, 3 µCi, 24 h, U-87 MG glioma xenograft | relative to: tumour over muscle | tumour to muscle ratio | 24 ± 14.2
